Assay results collected from several papers.
Each numbered part is a random draw from the data of one study; scales do not carry over between parts.

Set 1
Target: Interferon regulatory factor 5, full length, phosphomimetic (IRF5, Homo sapiens, UniProt Q13568-2, residues 1-514, K96S/S451D/S453D/S456D/S462D)
Method: protein-binding microarray
Form: double-stranded DNA, one strand shown
Sample: in vitro
Concentration: 250 nM
Setting: 60-bp whole probe
Together with: salmon DNA 0.4 mg/ml
Relative to: random background probes
Direction: higher = stronger binding
Shared flanks, not repeated: GCCTAGCAC … GTCTTGATTCGCTTGACGCTGCTG
| Oligonucleotide | log fluorescence [z-score] |
| --- | --- |
| GACGTTATCAGTATCGAGACGTGCTAG | 3.13 |
| GACGATATCGGGTTACGAGACGTGCTA | 2.03 |
| CTCCATGAACAGGGCTGATGGTGCTAG | -0.336 |
| TTAGGACTAGGGTTTCGGTTAGTGCTA | 6.06 |
| TTAGGACTGGGTATCGGGTAGTGCTAG | 1.07 |
| GACGGTTTCCTTCTCCCGACGTGCTAG | 1.07 |
| TTAGAACTGAGTTTCGGTTAGTGCTAG | 10.2 |
| GACGGACTGGGGTATCGGGAGGTGCTA | -0.13 |
| TTTCCTTTATGTACTCTCTACGTGCTA | 3.56 |
| ATTTTTTTTTTCATCATTGCGTGCTAG | 1.31 |
| GACGATCTCGGTCTCGGGACGTGCTAG | 0.0244 |
| GAACTTTGGCCTCTAGGTTTGTGCTAG | -0.439 |
| TCAGTTCTGCTTCTTAGACTGTGCTAG | 0.328 |
| GACGGACTGGGGTATCGGGAAGTGCTA | 0.0964 |
| ATAGAACTGAGACTGGATTAGTGCTAG | -0.00313 |
| GACGGACTGATTTTCCTGACGTGCTAG | -0.117 |
| TTAGGTATTGGTCTCGGTTAGTGCTAG | 1.5 |
| TACGATATCGGGACTGGAGACGTGCTA | 0.889 |
| TTAGGTTTCCTTTCCCTTTTGTGCTAG | 2.08 |
| TTAGATTTGAGTTTCGATTAGTGCTAG | 9.23 |
| TTAGATTTCGGGACTGGACTAGTGCTA | 2.64 |
| CTGTTTCTGTGTCACAGAGGGTGCTAG | 4.4 |
| TTAGGACTGTTTCTCCTTTAGTGCTAG | 0.729 |
| GACAGTATCGACTTTCGGGACGTGCTA | 8.01 |
| GACTGTTTCGGTTCCGGGACGTGCTAG | 9.62 |

Set 2
Target: Fragile X messenger ribonucleoprotein 1, C-terminal low-complexity region (Fmr1, Mus musculus, UniProt P35922)
Method: RNA Bind-n-Seq
Form: RNA
Sample: in vitro
Concentration: 200 nM
Setting: whole 134-nt RNA, ends assumed
Together with: 150 mM KCl
Relative to: input library
Direction: higher = stronger binding
| Oligonucleotide | log2 enrichment |
| --- | --- |
| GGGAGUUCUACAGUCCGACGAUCUGGCCCUGGUGGCAUGCGGGGAGGAAGAGGUGGCCUCAUGGAUCGUGGUGGUCCCGGUUGAAUGUUCAGAGGUGGCCGUGGUGGAGACAGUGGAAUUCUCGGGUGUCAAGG | -0.224 |
| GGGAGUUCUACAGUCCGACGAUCUCAAGUCCUGUGCUACACAUCGUAUGUACCGAAUCGGUUGGGGUUGGGUUGGGGAAAGUAUUAUGUUACGCCGUUCGGAUCUGCACUUCCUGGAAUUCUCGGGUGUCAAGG | 1.08 |
| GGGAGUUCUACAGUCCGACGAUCUCCUCAAGUCCUGUGCUACACAUCGUAUGUACCGAAUCGGGUGGGUGGUGGAAAGUAUUAUGUUACGCCGUUCGGAUCUGCACUUCCAGCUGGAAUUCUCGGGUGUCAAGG | 0.192 |
| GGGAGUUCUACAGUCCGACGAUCAAGUCCUGUGCUACACAUCGUAUGUACCGAAUCGGGGAAAAGGAAAAGGGAAAAGGGAAAGUAUUAUGUUACGCCGUUCGGAUCUGCACUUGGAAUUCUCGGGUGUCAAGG | -0.343 |
| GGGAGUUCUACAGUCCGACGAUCGUCCUGUGCUACACAUCGUAUGUACCGAAUCGGGGCCCCGGGCCCCGGGGCCCCGGGGAAAGUAUUAUGUUACGCCGUUCGGAUCUGCACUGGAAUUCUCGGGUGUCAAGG | -1.06 |
| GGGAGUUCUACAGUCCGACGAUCGUCCUGUGCUACACAUCGUAUGUACCGAAUCGGGAAAAAGGGUUUGGGAAAAAAAGGGAAAGUAUUAUGUUACGCCGUUCGGAUCUGCACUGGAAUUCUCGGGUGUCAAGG | -0.675 |
| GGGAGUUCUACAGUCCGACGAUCGUCCUGUGCUACACAUCGUAUGUACCGAAUCGGGAAAGGGUUUUUUUGGGUUUUUGGGAAAGUAUUAUGUUACGCCGUUCGGAUCUGCACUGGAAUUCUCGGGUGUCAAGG | -0.15 |
| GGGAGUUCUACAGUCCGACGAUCCUGUGCUACACAUCGUAUGUACCGAAUCGGGGAAAAAAAGGGGUUUUUUUGGGGAAAGGGGAAAGUAUUAUGUUACGCCGUUCGGAUCUGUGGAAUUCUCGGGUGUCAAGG | -0.0226 |
| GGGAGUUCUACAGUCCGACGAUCGUCCUGUGCUACACAUCGUAUGUACCGAAUCGGGUUUUUGGGUUUUUGGUUUUUGGGGAAAGUAUUAUGUUACGCCGUUCGGAUCUGCACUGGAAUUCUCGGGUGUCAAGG | -0.157 |
| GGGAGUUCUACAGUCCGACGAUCCCUGUGCUACACAUCGUAUGUACCGAAUCGGCCCCCCCGGCCCCCCCGGGGCCCCCCCGGGAAAGUAUUAUGUUACGCCGUUCGGAUCUGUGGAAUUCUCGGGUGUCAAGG | -0.452 |

Set 3
Target: Histone acetyltransferase KAT6A, both winged helices, GST fusion (KAT6A, Homo sapiens, UniProt Q92794, residues 1-181)
Method: protein binding microarray
Form: double-stranded DNA, one strand shown
Sample: in vitro
Concentration: not given
Setting: 8-mer, flanks averaged, mean of 2 arrays, mostly near background
Relative to: not given
Direction: higher = stronger binding
Target sequence (chain): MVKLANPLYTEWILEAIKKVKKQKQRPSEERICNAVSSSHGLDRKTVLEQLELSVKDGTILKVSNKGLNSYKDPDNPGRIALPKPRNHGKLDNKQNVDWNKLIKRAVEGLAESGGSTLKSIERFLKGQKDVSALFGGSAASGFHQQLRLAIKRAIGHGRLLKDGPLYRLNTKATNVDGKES
| Oligonucleotide | E-score |
| --- | --- |
| TCTAACCA | -0.174 |
| CCAAGGGC | 0.0134 |
| GCCCACTA | -0.288 |
| CAGCGCAA | 0.188 |
| GTACGGAC | 0.222 |
| ATACGTCC | 0.0221 |
| ACCCAGGG | -0.195 |
| CCGGGATC | 0.255 |
| AACCGATA | 0.123 |
| CACGAGGA | -0.169 |
| GGGACAAC | -0.0338 |
| CCTGGACG | -0.0757 |
| ACGGTCTA | 0.167 |
| ACTAGCTG | -0.171 |
| CTCCCAGA | -0.154 |
| CCACACAA | -0.181 |
| CCAAATAA | -0.181 |
| AGGCTTAA | -0.0968 |

Set 4
Target: RNA binding protein fox-1 homolog 2, RRM domain, GST-SBP tag (RBFOX2, Homo sapiens, UniProt O43251-10, residues 100-194)
Method: RNA Bind-n-Seq
Form: RNA
Sample: in vitro
Concentration: 365 nM
Setting: natural RNA segment, single round, ends assumed
Relative to: no-protein control
Direction: higher = stronger binding
Residues (chain): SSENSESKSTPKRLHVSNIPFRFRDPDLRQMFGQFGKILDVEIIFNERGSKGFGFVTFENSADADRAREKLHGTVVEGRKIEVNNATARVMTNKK
| Oligonucleotide | RBNS enrichment (R) |
| --- | --- |
| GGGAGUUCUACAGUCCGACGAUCCUCUUUCUCUCUGUUUUUAAAAUAAUCUAAAGAAAGCACAUUUUACCAUUGCUGUUGGGAGGAAGCAGAGGCAGAUGGGAAAGCAGAGAGAGGAGCGCGCUUCCUUUCCUUGGAAUUCUCGGGUGCCAA | 0.266 |
| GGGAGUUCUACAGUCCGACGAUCAAUUUAGAGUUUUGAAGAAAUAGUCUCCCUUCAAUUAAGAAAUUUUCAUAAUGGAAUGAUUUAAAUUGAAGUGACAAAGAGUAUUAUUAAAAUACAAUGUUUAUACGUCUUGGAAUUCUCGGGUGCCAA | 0.481 |
| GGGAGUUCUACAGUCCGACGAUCCUGCAGAGUAUAGGGGCCUGAAAGUUUUAUGAAACGGGUGUAAUAUCUCCUCUGCCUGUGACUUGGGUGGGACUGUCAUUGUGGGUAGCCAUUUAUUGAAUUCAACUUUUUGGAAUUCUCGGGUGCCAA | 0.675 |
| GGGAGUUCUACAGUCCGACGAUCCUGUGGCCCUUUUUUGAAGCUACUCUGACAUGUCCCAGAGCCCAAGGUUCUCAUUUCUCAGGUGGUGGGACUAGACAGAGGGAGUGGCAAGCUCAGGGAAGGAUCAUUUCUGGAAUUCUCGGGUGCCAA | 0.25 |
| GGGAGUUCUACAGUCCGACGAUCUCAUUGGUACGGUUUUUCUAAGGGCCGCAGUGAGAUGUAGCAGAAGAAAUAUGUUUAUUUUGGGCAAAGAUUUGCUUAUUGGCCUGGGAUUGCACAUUUUCUCUAUGAUGUGGAAUUCUCGGGUGCCAA | 0.455 |
| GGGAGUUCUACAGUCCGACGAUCGUAAAUGUAUAAAUGUAUAUUGUGUUGUAUGUAUAUUUUAUAUUUAUAAUAAAUGCAAACUAAUUCUGGCCGUGUUCUAAGGUUUUUUUGUUUUUUGUUUUUGUCAGAUCUGGAAUUCUCGGGUGCCAA | 0.98 |
| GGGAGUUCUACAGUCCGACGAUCUAGUCCUACCACUAGAGGGCAUGGUACAGCCUGGCAAAAGUUAAAAGGGGUGUGGCAGCUCCCAUCAGGUCUGGAGGUGGUCUAUAAGCACAGUUGACAGUUGUGCAUUGUGGAAUUCUCGGGUGCCAA | 0.619 |
| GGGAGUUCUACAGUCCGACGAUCUAAACUGUAUCAUACAGUAAUGCCAGCAUUUUUAUUUAAUAGGUCAUCGUCUUCCUUUUAUAGCUGUUUUACUUCAUUGAAUACGAUCAUGUACCCAGUGUUAACUCUUUUGGAAUUCUCGGGUGCCAA | 0.682 |
| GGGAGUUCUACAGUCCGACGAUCCAAGAGGAAGCUAAAAACCGAGAUCAUAGGAAAAUUGGCAGGGACCAAGAACUAUAUUUCUUUCAUGAACUCAGCCCUGGAAGUUGCUUUUUUCUGCCAAAAGGAGCCUAUGGAAUUCUCGGGUGCCAA | 0.686 |
| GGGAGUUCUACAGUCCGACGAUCUGUCUUAAUGUCGGGGAGCAGCCUGGUGUCCUGCCCCAGGUGUCCGCAUUUUUGCAUGGUAAGGAAAAGGCUUACUUGCCCUUCAGCUCAUAAAAGCAGAAGGUGUGCUAUGGAAUUCUCGGGUGCCAA | 0.894 |
| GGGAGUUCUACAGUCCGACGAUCAGAUGGUAAACCAGAUCUGUCUCCAAGACCUUGGCCUCUCCUUGGAGGACCUUUAGGUCAAACUCCCUAGUCUCCACCUGAGACCCUGGGAGAGAAGUUUGAAGCACAACUGGAAUUCUCGGGUGCCAA | 0.233 |
| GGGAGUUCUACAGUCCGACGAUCAAAACCAGUAAUUCAUUUACUCUUGCCCAAAACUAUACACUGUAUUUCUGUUAUAGUAACAAAAUAGAGUUAUGUAGAAUUGUAUGGAACUCAAAUUUAAACCAUGCUUUUGGAAUUCUCGGGUGCCAA | 0.327 |

Some of these lines once more (set 1):
| Oligonucleotide | log fluorescence [z-score] |
| --- | --- |
| GACTGTTTCGGTTCCGGGACGTGCTAG | 9.62 |
| TTAGGACTGTTTCTCCTTTAGTGCTAG | 0.729 |
| ATAGAACTGAGACTGGATTAGTGCTAG | -0.00313 |
| TTAGGTTTCCTTTCCCTTTTGTGCTAG | 2.08 |
| GACGGTTTCCTTCTCCCGACGTGCTAG | 1.07 |
| GACGATCTCGGTCTCGGGACGTGCTAG | 0.0244 |
| TTAGGACTAGGGTTTCGGTTAGTGCTA | 6.06 |
